Assay results gathered from unrelated publications.
Protocols differ between the studies behind these lines. “And” joins repeats or separate records; there may be more than shown. ± gives the spread as reported. In brackets after ≈: the same amount, converted by molar mass.

SMILES	organism	test	system	conditions	quantity	value
C=C(NC(=O)c1csc(-c2nc3c(cc2O)-c2nc(cs2)C(=O)NC(C(C)O)C(=O)NC(=C(C)OC)c2nc(cs2)C(=O)NC2c4nc(cs4)C(=O)NC(COC(=O)c4c5c6c(cccc6n4O)COC(=O)C(OC4CC(C)(O)C(N(C)C)C(C)O4)C2OC5)c2nc-3cs2)n1)C(N)=O (stereo not drawn)	Streptococcus pneumoniae	–	-25, immunocompromised mice, lung infection	32 mg/kg/day, twice daily, 24 h post-dose	lung bacterial load	3.89 log CFU/g
CCCCC(CSS(=O)(=O)O)NCC(C)C (stereo not drawn)	Schistosoma mansoni	–	infected mice	100 mg/kg x4, dosed from day 11, perfusion day 25	mean worms recovered	64 worms per mouse
CC(=O)OC[C@H]1O[C@@H](Sc2sc(C(=O)c3ccc(C)cc3)c(N)c2-c2nc3ccccc3s2)[C@H](OC(C)=O)[C@@H](OC(C)=O)[C@@H]1OC(C)=O	hepatitis A virus	plaque reduction	HM 175	non-toxic concentration	viral titre reduction	10%
CC1=C(Cn2cc(CN3CCC(=O)CC3)nn2)C(=O)c2ccccc2C1=O	Schistosoma mansoni	parasite growth	–	72 h, larva	IC50	950 nM
Nc1c(C(=O)c2ccc(Br)cc2)sc(S)c1-c1nc2ccccc2s1	hepatitis A virus	plaque reduction	HM 175	non-toxic concentration	viral titre reduction	0%
C[C@@H]1C(=O)O[C@@H](C)/C=C/C=C\[C@@H](C)[C@@H]2C=C[C@@H]3C[C@@]4(C)O[C@H]4[C@@H](C)[C@H]3[C@@H]2C(=O)C(Cl)(Cl)C1=O	Staphylococcus aureus	–	MRSA clinical isolate	resistant, OXA, CIP, MXF, GEN, CLI	MIC	0.05 µg/mL (≈ 0.101 µM)
CC(=O)OC[C@H]1O[C@@H](Sc2sc(C(=O)c3ccc(Br)cc3)c(N)c2-c2nc3ccccc3s2)[C@H](OC(C)=O)[C@@H](OC(C)=O)[C@H]1OC(C)=O	hepatitis A virus	plaque reduction	HM 175	non-toxic dose NG, mean over three titres	viral reduction	20%
CCCOC(=O)N1c2cc(CNC)ccc2[C@H](NC(=O)C(=O)Nc2ccc(Cl)c(F)c2)[C@H]1CNC(=N)N	Human immunodeficiency virus 1	viral infection, Env pseudovirus	TZM-bl, 620345.c01 CRF01_AE	–	IC80	> 100000 nM
COC1C=COC2(C)Oc3c(C)c(O)c4c(c3C2=O)C2=NC3(CCN(CC(C)C)CC3)NC2=C(NC(=O)C(C)=CC=CC(C)C(O)C(C)C(O)C(C)C(OC(=O)Nc2cccnn2)C1C)C4=O (stereo not drawn)	Mycobacteroides abscessus	bacterial growth	subsp. abscessus Bamboo	–	IC50	24 nM
Cc1cc(Cl)cc(S(C)=NC#N)c1NC(=O)c1cc(Br)nn1-c1ncccc1Cl (stereo not drawn)	Spodoptera litura	–	Brassica oleracea field plot	50 ppm, 72 h, 10% wettable powder	larval viability	22.9% and 32% and 14.3%
CN(C(=O)[C@H](Cc1ccccc1)NC(=O)Cc1c[nH]c2ccc(O)cc12)c1ccc(Cl)cc1	HIV-1	viral replication	–	–	EC50	32 ± 10 nM
CC1=C(Cn2cc(CN3CCC(F)(F)CC3)nn2)C(=O)c2ccccc2C1=O	Schistosoma mansoni	–	adult worms	10 µM, 72 h	killing	43.5%
O=C(NCC(O)(Cn1cncn1)c1ccc(F)cc1F)[c-]1cccc1.[Cl-].[Co+3].c1cc[cH-]c1 (racemic)	Brugia pahangi	motility, Worminator	adult female	50 µM, 6 d	inhibition	0%
CC(C)(C)NCC(SS(=O)(=O)O)c1ccccc1 (stereo not drawn)	Schistosoma mansoni	–	mice	600 mg/kg single dose, dosed day 7, perfused 44	male worms recovered	36 worms per mouse and 14 worms per mouse and 11 worms per mouse and 21 worms per mouse and 18 worms per mouse
CC1(C)NC(=O)N(c2ccc(F)c(C(C)(F)F)c2)C1=O	Schistosoma mansoni	–	juvenile stage, infected mice	oral, single dose	ED50	51 mg/kg

A few entries again:
SMILES	organism	test	system	conditions	quantity	value
CN(C(=O)[C@H](Cc1ccccc1)NC(=O)Cc1c[nH]c2ccc(O)cc12)c1ccc(Cl)cc1	HIV-1	viral replication	–	–	EC50	32 ± 10 nM
CC1=C(Cn2cc(CN3CCC(F)(F)CC3)nn2)C(=O)c2ccccc2C1=O	Schistosoma mansoni	–	adult worms	10 µM, 72 h	killing	43.5%
